{"data": "Measured values gathered from unrelated publications", "note": "Protocols differ between the studies behind these lines. “And” joins repeats or separate records; there may be more than shown. Numbers after ± are the reported error.", "chain of UniProt P20813 (whole entry, looked up)": "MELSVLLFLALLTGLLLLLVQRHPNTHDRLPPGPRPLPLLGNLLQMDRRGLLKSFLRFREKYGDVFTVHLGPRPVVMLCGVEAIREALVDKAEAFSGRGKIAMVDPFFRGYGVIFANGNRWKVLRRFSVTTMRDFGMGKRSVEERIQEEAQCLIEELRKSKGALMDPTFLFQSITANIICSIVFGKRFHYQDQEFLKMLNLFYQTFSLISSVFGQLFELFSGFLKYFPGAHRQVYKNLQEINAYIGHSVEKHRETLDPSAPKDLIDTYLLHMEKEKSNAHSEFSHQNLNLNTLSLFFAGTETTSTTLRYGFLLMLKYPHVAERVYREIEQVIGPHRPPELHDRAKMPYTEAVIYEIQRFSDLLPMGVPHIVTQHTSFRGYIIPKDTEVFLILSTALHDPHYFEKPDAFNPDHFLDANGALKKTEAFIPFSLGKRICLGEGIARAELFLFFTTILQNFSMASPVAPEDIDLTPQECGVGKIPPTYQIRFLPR"}
{"Compound": "O=S(=O)(NCc1ccncc1)c1ccc(C2CCCCC2)cc1", "test system": "CK-p25 mouse", "setting": "0.3 mg/kg", "how to read": "reference: vehicle", "quantity": "body weight change", "result": "12 ± 2 g"}
{"Compound": "CNS(=O)(=O)Nc1nccc(Cc2c(C)c3ccc(Oc4ncccc4F)cc3oc2=O)c1F", "tested on": "SK-ES1", "test": "cell viability", "setting": "7 days", "quantity": "IC50", "result": "> 1000 nM"}
{"Compound": "Nc1ncc(-c2cc(-c3cnn(CC(F)(F)F)c3)ncc2F)nc1C(=O)NC1CNCC(F)C1 (stereo not shown)", "tested on": "SGK3", "test": "KINOMEscan", "setting": "1 µM", "how to read": "reference: DMSO control", "quantity": "remaining binding", "result": "51%"}
{"Compound": "COC1CN([C@H]2CC[C@H]([C@@]3(C)Oc4c(Cl)cc(C(=O)NCc5c(SC)cc(C)[nH]c5=O)c(C)c4O3)CC2)C1", "test": "RNA-seq, refers to: B3GALNT1 mouse homolog", "test system": "mouse, HT-1376 xenograft, whole blood", "setting": "dose not given", "how to read": "reference: vehicle", "quantity": "log2 fold change", "result": 0.671}
{"Compound": "Cc1c(Cc2ccc(Cl)c(O[C@@H](C)C(=O)O)c2)c2ccc(C(=O)N[C@@H](C)c3ccc(C(C)(C)C)cc3)cc2n1CC1CCC1", "test system": "human liver microsomes", "setting": "1 µM, added: microsomes 1 mg/mL", "quantity": "half-life", "result": "> 60 min"}
{"Compound": "CC(=O)N([O-])CCCCCNC(=O)CCC(=O)N([O-])CCCCCNC(=O)CCC(=O)N([O-])CCCCCN.[89Zr+4]", "test system": "mouse, bone", "setting": "4 h", "quantity": "tracer uptake", "result": "0.05 %ID/g"}
{"Compound": "C#CCOCCOCCOCCOCCn1cc(C(ONC(=O)/C=C/C(C)=C/C2(C)Oc3cc(N(C)C)ccc3C2=O)(c2ccc(C)cc2)c2ccc(C)cc2)nn1 (stereo not shown)", "test": "HPLC", "test system": "aqueous buffer, 20% acetonitrile", "setting": "concentration not given, 24 min, pH 3", "how to read": "reference: initial prodrug amount", "quantity": "release from prodrug hydrolysis", "result": "93.2%"}
{"Compound": "CCCC[C@H](NC(C)=O)C(=O)N[C@@H](CO)C(=O)N[C@H](C(=O)N1CCC[C@H]1C(=O)N[C@]1(C)CCCCCCC=CCCC[C@@](C)(C(=O)N[C@@H](Cc2ccccc2)C(=O)N[C@@H](CCCCN)C(=O)N[C@@H](CCCNC(=N)N)C(=O)N[C@@H](CC(C)C)C(=O)N[C@@H](CCC(N)=O)C(N)=O)NC(=O)[C@H](CCCNC(=N)N)NC(=O)[C@H](CCCC)NC(=O)[C@H](CC(C)C)NC(=O)[C@H](CCCNC(=N)N)NC(=O)[C@H](CCCNC(=N)N)NC(=O)[C@H](CCCNC(=N)N)NC1=O)[C@@H](C)O", "tested on": "proteinase K", "test": "LC-MS", "setting": "25 µM, 430.6 min, pH 7.4", "quantity": "remaining peptide", "result": "42.9%"}
{"Compound": "O=C(NS(=O)(=O)c1cccs1)c1cc2ccccc2n1Cc1ccc(Br)c2ccccc12", "test system": "KM mouse, chronic hyperuricaemia model", "setting": "dose not given, day 25", "quantity": "body weight", "result": "37.4 g and 40.2 g and 38.4 g and 34.6 g"}
{"Compound": "CN1CCCNC(=O)c2cccc(c2)C(=O)NCCCN(C)CCCNc2cccc3c2C(=O)c2cccc(c2C3=O)NCCC1", "test system": "mouse xenograft model", "setting": "dose not given, day 0", "quantity": "body weight", "result": "25 g and 26 g and 24 g"}
{"Compound": "C=CC(=O)Nc1cc(Nc2nccc(-c3cn(C)c4ccccc34)n2)c(OC)cc1N(C)CCNC", "test": "storage stability", "test system": "human plasma", "setting": "24 h, -80 °C, LLOQ level", "quantity": "recovery", "result": "91%"}
{"Compound": "CNc1cc(C)c(C(N)=O)cn1", "test system": "Han Wistar rats, male, plasma", "setting": "oral, 30 mg/kg, 3.00 h", "quantity": "concentration at time", "result": "45 µM"}
{"Compound": "COc1cccc(OC)c1-c1cc(C(=O)NC2(C(=O)O)C3CC4CC(C3)CC2C4)nn1-c1ccc(C(=O)N(C)CCOCCN(C)C(=O)[C@H](CCCCNC(=O)[C@H](CC(C)C)NC(=O)C2OC2C(=O)O)NC(=O)CN2CCN(CC(=O)[O-])CCN(CC(=O)[O-])CCN(CC(=O)[O-])CC2)cc1C(C)C.[177Lu+3] (mixture of isomers)", "test system": "mouse, HT-29 xenograft, brain", "setting": "72 h post injection", "quantity": "tissue uptake", "result": "0.007 %ID/g"}
{"Compound": "CN(C)S(=O)(=O)c1ccc(S(=O)(=O)N2CCC(n3c(=O)[nH]c4ccccc43)CC2)cc1", "test system": "mouse", "setting": "dose not given, day 4", "how to read": "reference: day 0", "quantity": "relative body weight", "result": "98% and 97% and 103% and 101% and 99%"}
{"Compound": "CC(C)OCCOCc1ccc(OCC(O)CN(N=O)C(C)C)cc1 (stereo not shown)", "tested on": "Salmonella typhimurium", "test": "Ames test", "test system": "TA1535", "setting": "158 µg/plate, 30 % hamster S9", "how to read": "reference: solvent control", "quantity": "revertant fold increase", "result": "5.1 fold"}
{"Compound": "CN1CCC[C@]1(C)/C=C/S(=O)(=O)NC(=O)Nc1c2c(cc3c1CCC3)CC=C2", "test system": "human, plasma", "setting": "oral, 12.5 mg twice daily of parent drug, day 14, metabolite of dosed drug", "quantity": "Cmax at first steady-state dose", "result": "7500 ng/mL"}
{"Compound": "O=C(Nc1cnccc1-c1ccc([18F])cc1)c1ccnc(NC(=O)C2CC2)c1", "test": "ex vivo gamma counting", "test system": "GSK-3β transgenic mice, early-stage, bladder", "setting": "intravenous, 120 min, mean, no P-gp inhibitor", "quantity": "SUV", "result": 1.36}
{"Compound": "O=c1c2sccc2n(CC2COc3ccccc3O2)c(=O)n1O (stereo not shown)", "test system": "Caco-2", "setting": "10 µM", "quantity": "Papp B→A", "result": "5.6 ×10⁻⁶ cm/s"}
{"Compound": "C=CC(=O)Nc1cccc(Cn2ncc3cnc(Nc4cnn(CCOC)c4)nc32)c1", "tested on": "NEK5 human", "test": "binding, KINOMEscan", "setting": "100 nM", "how to read": "lower = stronger binding", "quantity": "percent of control", "result": "57%"}
{"Compound": "Cc1cccc(O[C@H]2CCC[C@@H](C(C)CNCc3ccncc3)C2)c1 (relative stereo)", "test system": "C57BL/6 wild-type mouse pups", "setting": "50 mg/kg, one month", "quantity": "body weight", "result": "1.8 g and 1.7 g and 1.5 g and 1.6 g"}
{"Compound": "COc1ccc(CNc2nc([C@H]3CC[C@H](C(=O)O)CC3)nc3sc4ccccc4c23)cc1Cl", "test system": "NSG mouse", "setting": "dose not given, day 1 of treatment", "quantity": "body weight", "result": "21 g and 21.3 g and 18.3 g and 22.9 g"}
{"Compound": "CNC(=O)C1CCCN(C(=O)C2CC3CCC2N3C(=O)[C@@H]2C[C@@H](O)CN2C(=O)NCc2cccc(Cl)c2F)C1 (mixture of isomers)", "tested on": "Cytochrome P450 2B6 (CYP2B6, Homo sapiens, UniProt P20813)", "test": "preincubation without NADPH", "test system": "human", "setting": "50 µM", "how to read": "reference: negative control", "quantity": "remaining activity", "result": "102% and 106%"}
{"note": "Repeated from above:"}
{"Compound": "O=S(=O)(NCc1ccncc1)c1ccc(C2CCCCC2)cc1", "test system": "CK-p25 mouse", "setting": "0.3 mg/kg", "how to read": "reference: vehicle", "quantity": "body weight change", "result": "12 ± 2 g"}
{"Compound": "CNS(=O)(=O)Nc1nccc(Cc2c(C)c3ccc(Oc4ncccc4F)cc3oc2=O)c1F", "tested on": "SK-ES1", "test": "cell viability", "setting": "7 days", "quantity": "IC50", "result": "> 1000 nM"}
